Measurements from different studies.
Several values in a cell are separate wells, animals, samples, runs or records.
Cell line: BT-549

| SMILES | test | system | conditions | how to read | endpoint | result |
| --- | --- | --- | --- | --- | --- | --- |
| CCn1cc(-c2cc(Cn3ccnc3)cc3c2CCN([C@H](c2cc(OC)ccn2)C2CC2)C3=O)c(C(F)(F)F)n1 | cell growth, inhibitor |  | 120 h |  | EC50 | 13.8 µM |
| CCCCN1CCN(c2ccc3[nH]c(-c4ccc5[nH]c(-c6cc(OC)c(OC)c(OC)c6)nc5c4)nc3c2)CC1 | SRB |  | 10 µM, 48 h |  | growth percent | 80.2% |
| Cn1cncc1C1=CN(c2ncnc3[nH]cnc23)CCS1 |  |  |  |  | TGI | 35.5 µM |
| S=C([S][Au-][P+](CCCCCC[P+]([Au-][S]C(=S)n1cccn1)(c1ccccc1)c1ccccc1)(c1ccccc1)c1ccccc1)n1cccn1 | cell growth, NCI-60 screen |  | breast cancer |  | log10 TGI | -4.78 |
| CC(=O)O[C@H]1C(=O)[C@@]2(C)[C@H]([C@H](OC(=O)c3ccccc3)[C@]3(O)C[C@H](OC(=O)[C@H](O)[C@@H](NC(=O)c4ccccc4)c4ccccc4)C(C)=C1C3(C)C)[C@]1(OC(C)=O)CO[C@@H]1C[C@@H]2O | sulforhodamine B | Breast cancer | NCI60 screen |  | TGI | 0.79 µM |
| CCCCN1CCN(c2ccc3nc(-c4ccc5nc(-c6cc(OC)ccc6OC)[nH]c5c4)[nH]c3c2)CC1 | SRB |  | 10 µM, 48 h |  | growth percent | 95.9% |
| C#C[C@@]1(O)[C@@H](CO)O[C@@H](n2cc(I)c3c(N)ncnc32)[C@@H]1O | SRB |  | NCI-60 screen |  | TGI | 3.26 µM and 4.94 µM |
| CCCN1CCN(c2ccc3nc(-c4ccc5nc(-c6cc(OC)ccc6OC)[nH]c5c4)[nH]c3c2)CC1 | SRB |  | 10 µM, 48 h |  | growth percent | 96.3% |
| Cc1cc(-c2ccccc2)n(-c2nc(-c3ccc(Cl)cc3)c3c(NC(=O)c4ccccc4)nnc-3[nH]2)n1 | SRB |  | 10 µM, NCI60 single-dose screen | baseline: untreated | cell growth | 100% |
| COc1cnc2cccc(N3CCc4c(cc(Cn5ccnc5C)cc4-c4cn(C)nc4C(F)(F)F)C3=O)c2c1 | cell growth, inhibitor |  | 120 h |  | EC50 | > 30 µM |
| O=C1NC(=NCc2cccs2)S/C1=C\c1ccc2ncccc2c1 | MTS |  | NCI60 panel |  | IC50 | 4.78 µM |
| CCCCN1CCN(c2ccc3[nH]c(-c4ccc5[nH]c(-c6ccc(C(F)(F)F)cc6)nc5c4)nc3c2)CC1 | SRB |  | 10 µM, 48 h |  | growth percent | -53.2% |
| C#C[C@@]1(O)[C@@H](CO)O[C@@H](n2ccc3c(N)ncnc32)[C@@H]1O | SRB |  | NCI-60 screen |  | TGI | 3.64 µM |

A few entries again:
| SMILES | test | system | conditions | how to read | endpoint | result |
| --- | --- | --- | --- | --- | --- | --- |
| Cn1cncc1C1=CN(c2ncnc3[nH]cnc23)CCS1 |  |  |  |  | TGI | 35.5 µM |
